Measurements collected from several papers.
Compare with care: the assays were run in different laboratories. Numbers after ± are the reported error.
GNAI1: GNAI1 (Homo sapiens, UniProt P63096)
Sequence of UniProt P63096 (whole entry, looked up): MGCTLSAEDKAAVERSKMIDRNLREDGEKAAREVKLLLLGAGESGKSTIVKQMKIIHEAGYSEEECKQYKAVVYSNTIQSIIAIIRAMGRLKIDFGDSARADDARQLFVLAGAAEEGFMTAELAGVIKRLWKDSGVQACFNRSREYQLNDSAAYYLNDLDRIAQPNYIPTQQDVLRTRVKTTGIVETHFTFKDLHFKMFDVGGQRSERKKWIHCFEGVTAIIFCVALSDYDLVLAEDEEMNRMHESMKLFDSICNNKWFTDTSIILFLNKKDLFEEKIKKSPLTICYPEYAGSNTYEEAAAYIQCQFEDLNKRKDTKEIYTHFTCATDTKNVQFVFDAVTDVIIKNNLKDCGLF
B1: EIF2AK2 K296R (Homo sapiens, UniProt P19525); sequence looked up; chain MAGDLSAGFFMEELNTYRQKQGVVLKYQELPNSGPPHDRRFTFQVIIDGREFPEGEGRSKKEAKNAAAKLAVEILNKEKKAVSPLLLTTTNSSEGLSMGNYIGLINRIAQKKRLTVNYEQCASGVHGPEGFHYKCKMGQKEYSIGTGSTKQEAKQLAAKLAYLQILSEETSVKSDYLSSGSFATTCESQSNSLVTSTLASESSSEGDFSADTSEINSNSDSLNSSSLLMNGLRNNQRKAKRSLAPRFDLPDMKETKYTVDKRFGMDFKEIELIGSGGFGQVFKAKHRIDGKTYVIRRVKYNNEKAEREVKALAKLDHVNIVHYNGCWDGFDYDPETSDDSLESSDYDPENSKNSSRSKTKCLFIQMEFCDKGTLEQWIEKRRGEKLDKVLALELFEQITKGVDYIHSKKLIHRDLKPSNIFLVDTKQVKIGDFGLVTSLKNDGKRTRSKGTLRYMSPEQISSQDYGKEVDLYALGLILAELLHVCDTAFETSKFFTDLRDGIISDIFDKKEKTLLQKLLSKKPEDRPNTSEILRTLTVWKKSPEKNERHTC
Sequence of UniProt P06400 (whole entry, unmodified, looked up): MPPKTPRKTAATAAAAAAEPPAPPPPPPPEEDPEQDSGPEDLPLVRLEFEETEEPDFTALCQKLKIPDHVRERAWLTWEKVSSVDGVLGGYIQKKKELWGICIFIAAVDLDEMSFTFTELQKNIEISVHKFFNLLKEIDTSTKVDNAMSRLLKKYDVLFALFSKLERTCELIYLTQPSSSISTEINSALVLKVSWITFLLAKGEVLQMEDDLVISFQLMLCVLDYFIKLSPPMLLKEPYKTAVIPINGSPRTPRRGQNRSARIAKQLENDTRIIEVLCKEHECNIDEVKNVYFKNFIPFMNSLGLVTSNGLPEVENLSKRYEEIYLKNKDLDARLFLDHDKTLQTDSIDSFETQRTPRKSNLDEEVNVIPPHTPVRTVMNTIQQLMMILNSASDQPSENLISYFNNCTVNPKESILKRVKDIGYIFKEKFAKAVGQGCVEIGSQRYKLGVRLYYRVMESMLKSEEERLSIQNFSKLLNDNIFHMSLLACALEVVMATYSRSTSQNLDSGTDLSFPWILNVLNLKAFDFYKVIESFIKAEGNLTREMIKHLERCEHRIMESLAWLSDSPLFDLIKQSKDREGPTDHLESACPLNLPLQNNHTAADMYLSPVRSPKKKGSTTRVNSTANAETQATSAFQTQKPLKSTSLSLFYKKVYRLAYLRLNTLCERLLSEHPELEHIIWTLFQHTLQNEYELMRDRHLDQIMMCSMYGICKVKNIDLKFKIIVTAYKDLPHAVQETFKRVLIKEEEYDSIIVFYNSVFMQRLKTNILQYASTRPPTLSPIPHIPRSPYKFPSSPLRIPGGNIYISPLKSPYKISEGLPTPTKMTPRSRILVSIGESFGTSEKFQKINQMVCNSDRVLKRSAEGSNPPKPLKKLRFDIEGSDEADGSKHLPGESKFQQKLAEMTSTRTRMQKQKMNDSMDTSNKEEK
Sequence of UniProt P35222 (whole entry, looked up): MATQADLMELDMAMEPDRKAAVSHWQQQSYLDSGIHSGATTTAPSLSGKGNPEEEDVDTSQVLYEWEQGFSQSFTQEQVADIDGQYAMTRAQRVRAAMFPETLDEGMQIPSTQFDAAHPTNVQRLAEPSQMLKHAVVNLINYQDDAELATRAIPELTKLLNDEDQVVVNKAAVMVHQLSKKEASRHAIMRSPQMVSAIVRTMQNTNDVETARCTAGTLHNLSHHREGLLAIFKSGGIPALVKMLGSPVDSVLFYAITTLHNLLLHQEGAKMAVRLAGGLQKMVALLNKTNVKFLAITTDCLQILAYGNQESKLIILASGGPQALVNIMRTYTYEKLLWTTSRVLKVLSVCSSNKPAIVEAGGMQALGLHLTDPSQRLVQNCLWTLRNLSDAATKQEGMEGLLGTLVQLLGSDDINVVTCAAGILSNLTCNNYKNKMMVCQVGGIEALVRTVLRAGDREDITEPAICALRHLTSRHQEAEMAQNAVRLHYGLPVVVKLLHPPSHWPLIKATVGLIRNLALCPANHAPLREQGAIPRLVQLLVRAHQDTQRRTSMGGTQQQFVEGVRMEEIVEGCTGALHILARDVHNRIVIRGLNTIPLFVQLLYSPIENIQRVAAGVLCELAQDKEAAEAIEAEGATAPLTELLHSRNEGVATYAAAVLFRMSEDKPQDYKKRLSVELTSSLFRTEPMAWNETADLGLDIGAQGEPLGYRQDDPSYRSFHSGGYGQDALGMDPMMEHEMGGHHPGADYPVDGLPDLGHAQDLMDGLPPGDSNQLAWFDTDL
Sequence of UniProt P10415 (whole entry, looked up): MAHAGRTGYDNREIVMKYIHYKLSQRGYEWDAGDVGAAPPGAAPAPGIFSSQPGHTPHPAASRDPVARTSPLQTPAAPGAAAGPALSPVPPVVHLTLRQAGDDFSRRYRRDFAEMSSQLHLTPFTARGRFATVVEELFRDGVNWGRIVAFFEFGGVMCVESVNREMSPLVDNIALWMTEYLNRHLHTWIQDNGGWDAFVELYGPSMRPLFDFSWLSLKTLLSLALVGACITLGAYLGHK
Sequence of UniProt Q6Q546 (whole entry, looked up): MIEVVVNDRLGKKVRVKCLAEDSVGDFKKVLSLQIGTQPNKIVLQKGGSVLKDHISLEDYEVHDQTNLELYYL

Molecule = GVLRKTRHANILLFMGYST (BRAF 503-521 V511A); partner = BRAF kinase domain with dimer interface; assay = fluorescence titration; test system = peptide; quantity = Kd; value = 4750 ± 1700 nM
Molecule = STKKLSECLKRIGDELDSNMELQR (Bax BH3 peptide BH3 domain); partner = BCL2 1-211 (Homo sapiens, UniProt P10415); assay = ITC; test system = peptide; setting = 14 °C, single-site model; quantity = Kd; value = 23600 nM
Molecule = VLRKTAHVNILLFMG (BRAF 504-518 R509A); partner = BRAF kinase domain with dimer interface; assay = fluorescence titration; test system = peptide; quantity = Kd; value = 2400 ± 350 nM
Molecule = LSIEETNEIREKLGMKPI (SNU66 HIND-I peptide (Saccharomyces cerevisiae)); partner = HUB1 1-73 (Saccharomyces cerevisiae, UniProt Q6Q546); assay = ITC; test system = peptide; quantity = Kd; value = 1690 ± 270 nM
Molecule = DLYCYEQLN (E7 residues 21-29 (human papillomavirus)); partner = RB1 55-787 del245-267/del582-642, phosphorylated by Cdk2-CycA (UniProt P06400); assay = Rb activation, E2F binding increase, activator, fluorescence polarisation; test system = peptide; setting = 20 nM, added: E2F^TMR; quantity = EC50; value = 190 ± 40 nM
Molecule = AALEAKICHQIEYYFGDF (La peptide 11-28 (UniProt P05455); FITC label; sequence looked up); partner = SSB Y23Q (Homo sapiens, UniProt P05455); assay = SEC; test system = peptide; setting = 2 h, pH 7.5, 37 °C, added: FITC-LAP 28 µM; quantity = binding; value = binds
Molecule = LRKTRHVNILLFMG (BRAF 505-518); partner = BRAF kinase domain with dimer interface; assay = fluorescence titration; test system = peptide; quantity = Kd; value = 190 ± 130 nM
Molecule = BILF1 H288A (Epstein-Barr virus); partner = GNAI1; assay = IP3 accumulation; test system = HEK293; how to read = baseline: wild-type BILF1, higher = more signaling; quantity = relative Gi signaling; value = 98.9%
Molecule = GVLLKTRHVNILLFMGYST (BRAF 503-521 R506L); partner = BRAF kinase domain with dimer interface; assay = fluorescence titration; test system = peptide; quantity = Kd; value = 540 ± 110 nM
Molecule = B1 (EIF2AK2 K296R); partner = PRKRA PACT domain 3; assay = pull-down; how to read = baseline: wild-type MBP-3, higher = more PKR bound; quantity = relative binding; value = 100%
Molecule = GLSQEQLEHRERSLQTLRDIQRMLFP (BCL9 350-375 (Homo sapiens); fluorescent label); partner = CTNNB1 (Homo sapiens, UniProt P35222); assay = FP; test system = peptide; quantity = Kd; value = 270 nM
Molecule = BILF1 F286A/H288A (Epstein-Barr virus); partner = GNAI1; assay = IP3 accumulation; test system = HEK293; how to read = baseline: wild-type BILF1, higher = more signaling; quantity = relative Gi signaling; value = 87.1%
Molecule = M1 fragment (Influenza A virus); partner = HLA-DRA/HLA-DRB1*04:05 soluble recombinant (Homo sapiens); assay = ELISA; quantity = IC50; value = 4470 nM

Repeated from above:
Molecule = LRKTRHVNILLFMG (BRAF 505-518); partner = BRAF kinase domain with dimer interface; assay = fluorescence titration; test system = peptide; quantity = Kd; value = 190 ± 130 nM
Molecule = BILF1 H288A (Epstein-Barr virus); partner = GNAI1; assay = IP3 accumulation; test system = HEK293; how to read = baseline: wild-type BILF1, higher = more signaling; quantity = relative Gi signaling; value = 98.9%
